{"data": "Published values gathered from unrelated publications", "sample": "plasma", "note": "Each line is one published result; not all experiments were run side by side. ± gives the spread as reported."}
{"Structure (SMILES)": "CC[C@H](C)[C@H](NC(=O)[C@H](CC(C)C)NC(=O)[C@H](Cc1c[nH]c2ccccc12)NC(=O)[C@H](C)NC(=O)[C@@H](NC(=O)[C@H](Cc1ccccc1)NC(=O)[C@H](CC(=O)O)NC(=O)[C@H](CCCNC(=N)N)NC(=O)[C@H](C)NC(=O)[C@H](C)NC(=O)[C@H](CC(C)C)NC(=O)[C@H](C)NC(=O)[C@H](CC(=O)O)NC(=O)[C@H](CC(C)C)NC(=O)[C@@H](NC(=O)[C@@H](NC(=O)[C@H](C)NC(=O)[C@H](CC(C)C)NC(=O)[C@H](CCC(=O)O)NC(=O)[C@H](CO)NC(=O)[C@H](CO)NC(=O)[C@H](Cc1ccccc1)NC(=O)[C@@H](NC(=O)CNC(=O)[C@H](CCC(=O)O)NC(=O)CNC(=O)[C@@H](N)Cc1cnc[nH]1)[C@@H](C)O)[C@@H](C)O)[C@@H](C)CC)[C@@H](C)CC)C(=O)N[C@@H](C)C(=O)N[C@H](C(=O)N[C@@H](CCCCN)C(=O)N[C@H](C(=O)N[C@H](C(=O)N[C@@H](CC(=O)O)C(=O)N[C@@H](CCCCN)C(=O)N[C@@H](CCCCN)C(=O)N[C@@H](CCCCN)C(=O)N[C@@H](CCCCN)C(=O)N[C@@H](CCCCN)C(=O)N[C@@H](CCCCN)C(N)=O)[C@@H](C)O)[C@@H](C)CC)[C@@H](C)O", "system": "healthy humans", "conditions": "intravenous infusion, 1 mg single dose, 15 min infusion, geometric mean", "AUC(0-inf)": "44.2 nM·h"}
{"Structure (SMILES)": "CC(=O)N[C@H](CC(=O)O)C(=O)N[C@H](Cc1c[nH]c2ccccc12)C(=O)N[C@H](Cc1ccccc1)C(=O)N[C@H](CCCCN)C(=O)N[C@H](C)C(=O)N[C@H](Cc1ccccc1)C(=O)N[C@H](Cc1ccc(O)cc1)C(=O)N[C@H](CC(=O)O)C(=O)N[C@H](CCCCN)C(=O)N[C@@H](C(=O)N[C@H](C)C(=O)N[C@H](CCC(=O)O)C(=O)N[C@H](CCCCN)C(=O)N[C@H](Cc1ccccc1)C(=O)N[C@H](CCCCN)C(=O)N[C@H](CCC(=O)O)C(=O)N[C@H](C)C(=O)N[C@H](Cc1ccccc1)C(N)=O)C(C)C", "system": "human, statin-treated high-risk CHD, female", "conditions": "oral, 500 mg daily, day 13, mean, detected subjects only", "AUC(0-inf)": "0.575 µg·h/mL"}
{"Structure (SMILES)": "Cc1[nH]nc2c1N=C(c1ccccc1Cl)c1cnc(N3CCOCC3)cc1N2", "assay": "measured: total radioactivity", "system": "human male", "conditions": "oral, 10 mg", "AUC(0-inf)": "2480 h·ng eq/mL"}
{"Structure (SMILES)": "Cn1c(=O)oc2ccc(-c3ccc(CC(C#N)NC(=O)C4CNCCCO4)c(F)c3)cc21 (stereo not drawn)", "system": "human volunteers", "conditions": "15 mg single dose, fasted, geometric mean", "AUC(0-inf)": "0.835 µg·h/mL"}
{"Structure (SMILES)": "CCCOc1ccc(S(N)(=O)=O)cc1-c1nc2c(CCC)nn(C)c2c(=O)[nH]1", "system": "healthy male humans", "conditions": "oral, 200 mg of udenafil", "AUC(0-inf)": "5.32 ± 2.64 µg·h/mL"}
{"Structure (SMILES)": "CN1CCC[C@]1(C)/C=C/S(=O)(=O)NC(=O)Nc1c2c(cc3c1CCC3)CCC2", "system": "human", "conditions": "oral, 50 mg twice daily, day 14, multiple ascending dose", "AUC(0-inf)": "125 µg·h/mL"}
{"Structure (SMILES)": "CC(C)(O)c1ncc([S@](N)(=O)=NC(=O)Nc2c3c(cc4c2CCC4)CCC3)s1", "system": "healthy human fasted", "conditions": "oral, 300 mg single dose, spray-dried dispersion", "AUC(0-inf)": "329 µg·h/mL"}
{"Structure (SMILES)": "O=C(CCc1ccc(CNC(C(=O)O)C2CCCCC2)cn1)NO (stereo not drawn)", "system": "healthy male humans", "conditions": "oral, 20 mg, single dose, geometric mean", "AUC(0-inf)": "0.0655 µg·h/mL"}
{"Structure (SMILES)": "CCc1c2c(nc3ccc(O)cc13)-c1cc3c(c(=O)n1C2)COC(=O)[C@]3(O)CC", "system": "human patients", "conditions": "intravenous, 6 mg/m^2 of parent drug", "AUC(0-inf)": "0.017 µg·h/mL"}
{"Structure (SMILES)": "[2H]C([2H])([2H])NC(=O)c1ccc(N2C(=S)N(c3ccc(C#N)c(C(F)(F)F)c3)C(=O)C2(C)C)cc1F", "system": "healthy male humans", "conditions": "oral, 40 mg, fasting, soft capsules", "AUC(0-inf)": "152 ± 28.2 µg·h/mL"}
{"Structure (SMILES)": "CN[C@@H](CCOc1cccc2ccccc12)c1ccccc1", "system": "healthy male humans", "conditions": "oral, 60 mg of dapoxetine, with: udenafil 200 mg", "AUC(0-inf)": "0.218 ± 0.146 µg·h/mL"}
{"Structure (SMILES)": "O=C(CCc1ccc(CNC(C(=O)OC2CCCC2)C2CCCCC2)cn1)NO (stereo not drawn)", "system": "human", "conditions": "oral, 40 mg single dose, geometric mean", "AUC(0-inf)": "0.157 µg·h/mL"}
{"note": "Repeated from above:"}
{"Structure (SMILES)": "CC(=O)N[C@H](CC(=O)O)C(=O)N[C@H](Cc1c[nH]c2ccccc12)C(=O)N[C@H](Cc1ccccc1)C(=O)N[C@H](CCCCN)C(=O)N[C@H](C)C(=O)N[C@H](Cc1ccccc1)C(=O)N[C@H](Cc1ccc(O)cc1)C(=O)N[C@H](CC(=O)O)C(=O)N[C@H](CCCCN)C(=O)N[C@@H](C(=O)N[C@H](C)C(=O)N[C@H](CCC(=O)O)C(=O)N[C@H](CCCCN)C(=O)N[C@H](Cc1ccccc1)C(=O)N[C@H](CCCCN)C(=O)N[C@H](CCC(=O)O)C(=O)N[C@H](C)C(=O)N[C@H](Cc1ccccc1)C(N)=O)C(C)C", "system": "human, statin-treated high-risk CHD, female", "conditions": "oral, 500 mg daily, day 13, mean, detected subjects only", "AUC(0-inf)": "0.575 µg·h/mL"}
{"Structure (SMILES)": "CN1CCC[C@]1(C)/C=C/S(=O)(=O)NC(=O)Nc1c2c(cc3c1CCC3)CCC2", "system": "human", "conditions": "oral, 50 mg twice daily, day 14, multiple ascending dose", "AUC(0-inf)": "125 µg·h/mL"}
